Assay results collected from several papers.
Lines come from different studies, so protocols differ. ± marks the error that the study gave.
Chain of UniProt Q92547 (whole entry, unmodified, looked up): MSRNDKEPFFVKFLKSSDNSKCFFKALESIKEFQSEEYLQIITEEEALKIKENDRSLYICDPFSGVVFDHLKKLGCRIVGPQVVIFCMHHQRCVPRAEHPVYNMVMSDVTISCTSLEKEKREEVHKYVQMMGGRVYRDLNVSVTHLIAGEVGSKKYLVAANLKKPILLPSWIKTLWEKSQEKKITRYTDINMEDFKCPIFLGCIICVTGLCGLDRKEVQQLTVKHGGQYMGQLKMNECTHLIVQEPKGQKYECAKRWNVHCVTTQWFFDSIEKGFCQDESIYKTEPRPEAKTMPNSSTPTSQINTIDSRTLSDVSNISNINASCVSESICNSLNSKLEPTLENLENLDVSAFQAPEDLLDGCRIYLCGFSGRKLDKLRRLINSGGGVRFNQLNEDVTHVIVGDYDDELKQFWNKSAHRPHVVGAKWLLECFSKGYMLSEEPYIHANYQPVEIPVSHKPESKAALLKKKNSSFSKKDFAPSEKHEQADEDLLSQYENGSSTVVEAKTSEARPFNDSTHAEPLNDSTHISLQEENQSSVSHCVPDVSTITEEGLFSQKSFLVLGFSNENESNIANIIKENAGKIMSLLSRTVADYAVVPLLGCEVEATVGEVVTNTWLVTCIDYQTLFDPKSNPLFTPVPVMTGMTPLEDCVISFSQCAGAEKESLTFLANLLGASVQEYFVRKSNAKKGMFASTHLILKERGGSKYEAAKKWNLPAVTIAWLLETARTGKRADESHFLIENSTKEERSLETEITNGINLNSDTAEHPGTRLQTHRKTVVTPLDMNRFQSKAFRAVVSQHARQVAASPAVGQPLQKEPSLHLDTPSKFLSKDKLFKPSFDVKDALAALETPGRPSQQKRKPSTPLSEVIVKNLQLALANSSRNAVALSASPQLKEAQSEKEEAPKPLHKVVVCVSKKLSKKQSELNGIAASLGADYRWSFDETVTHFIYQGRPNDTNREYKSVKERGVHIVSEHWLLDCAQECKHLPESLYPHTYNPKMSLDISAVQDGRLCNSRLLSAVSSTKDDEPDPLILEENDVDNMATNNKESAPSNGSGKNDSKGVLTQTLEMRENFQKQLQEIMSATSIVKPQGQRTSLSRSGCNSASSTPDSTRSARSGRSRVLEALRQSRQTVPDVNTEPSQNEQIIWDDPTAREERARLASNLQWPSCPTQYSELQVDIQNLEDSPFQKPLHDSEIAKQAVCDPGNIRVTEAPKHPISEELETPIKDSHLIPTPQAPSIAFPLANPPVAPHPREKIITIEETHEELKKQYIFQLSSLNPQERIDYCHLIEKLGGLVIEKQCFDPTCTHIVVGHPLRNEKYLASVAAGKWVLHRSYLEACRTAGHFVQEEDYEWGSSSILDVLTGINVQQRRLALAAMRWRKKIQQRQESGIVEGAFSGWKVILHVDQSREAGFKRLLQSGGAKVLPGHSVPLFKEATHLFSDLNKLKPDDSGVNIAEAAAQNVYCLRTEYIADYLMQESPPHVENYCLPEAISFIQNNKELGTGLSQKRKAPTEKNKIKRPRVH
Chain of UniProt O60563 (whole entry, looked up): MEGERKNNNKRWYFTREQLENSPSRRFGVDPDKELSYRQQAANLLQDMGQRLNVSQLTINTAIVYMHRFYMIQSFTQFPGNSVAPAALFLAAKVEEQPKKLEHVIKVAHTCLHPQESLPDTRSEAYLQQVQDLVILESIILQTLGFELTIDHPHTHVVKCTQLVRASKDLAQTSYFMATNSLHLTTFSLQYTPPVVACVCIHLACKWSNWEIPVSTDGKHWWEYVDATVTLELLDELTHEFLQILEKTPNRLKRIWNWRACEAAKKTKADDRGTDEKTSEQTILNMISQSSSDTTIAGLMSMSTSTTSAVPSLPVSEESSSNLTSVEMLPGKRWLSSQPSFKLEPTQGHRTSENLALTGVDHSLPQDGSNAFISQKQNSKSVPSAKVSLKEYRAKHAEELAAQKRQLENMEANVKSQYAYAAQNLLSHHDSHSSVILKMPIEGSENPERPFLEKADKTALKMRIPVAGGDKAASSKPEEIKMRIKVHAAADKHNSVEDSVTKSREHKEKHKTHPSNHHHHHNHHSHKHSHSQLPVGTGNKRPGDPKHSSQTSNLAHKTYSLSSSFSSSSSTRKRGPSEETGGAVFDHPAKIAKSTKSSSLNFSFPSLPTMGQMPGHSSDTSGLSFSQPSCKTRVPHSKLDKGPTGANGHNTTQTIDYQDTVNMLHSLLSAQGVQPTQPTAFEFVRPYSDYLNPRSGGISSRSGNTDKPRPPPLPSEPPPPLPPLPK
Chain of UniProt Q9ULX7 (whole entry, looked up): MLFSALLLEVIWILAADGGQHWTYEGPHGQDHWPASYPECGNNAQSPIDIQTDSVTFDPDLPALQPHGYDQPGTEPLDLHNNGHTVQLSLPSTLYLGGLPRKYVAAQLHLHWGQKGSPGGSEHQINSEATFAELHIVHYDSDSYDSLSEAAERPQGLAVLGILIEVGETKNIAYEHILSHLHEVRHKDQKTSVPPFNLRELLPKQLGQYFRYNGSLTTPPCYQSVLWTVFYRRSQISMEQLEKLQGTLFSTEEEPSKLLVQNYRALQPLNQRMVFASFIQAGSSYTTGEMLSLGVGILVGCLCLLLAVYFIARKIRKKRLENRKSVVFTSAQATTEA
Chain of UniProt P02754 (whole entry, looked up): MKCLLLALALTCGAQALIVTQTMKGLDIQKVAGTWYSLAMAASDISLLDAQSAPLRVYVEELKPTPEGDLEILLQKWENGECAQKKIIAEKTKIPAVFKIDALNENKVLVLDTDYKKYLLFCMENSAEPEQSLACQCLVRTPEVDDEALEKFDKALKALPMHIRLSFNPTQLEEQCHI
Chain of UniProt P10636 (whole entry, looked up): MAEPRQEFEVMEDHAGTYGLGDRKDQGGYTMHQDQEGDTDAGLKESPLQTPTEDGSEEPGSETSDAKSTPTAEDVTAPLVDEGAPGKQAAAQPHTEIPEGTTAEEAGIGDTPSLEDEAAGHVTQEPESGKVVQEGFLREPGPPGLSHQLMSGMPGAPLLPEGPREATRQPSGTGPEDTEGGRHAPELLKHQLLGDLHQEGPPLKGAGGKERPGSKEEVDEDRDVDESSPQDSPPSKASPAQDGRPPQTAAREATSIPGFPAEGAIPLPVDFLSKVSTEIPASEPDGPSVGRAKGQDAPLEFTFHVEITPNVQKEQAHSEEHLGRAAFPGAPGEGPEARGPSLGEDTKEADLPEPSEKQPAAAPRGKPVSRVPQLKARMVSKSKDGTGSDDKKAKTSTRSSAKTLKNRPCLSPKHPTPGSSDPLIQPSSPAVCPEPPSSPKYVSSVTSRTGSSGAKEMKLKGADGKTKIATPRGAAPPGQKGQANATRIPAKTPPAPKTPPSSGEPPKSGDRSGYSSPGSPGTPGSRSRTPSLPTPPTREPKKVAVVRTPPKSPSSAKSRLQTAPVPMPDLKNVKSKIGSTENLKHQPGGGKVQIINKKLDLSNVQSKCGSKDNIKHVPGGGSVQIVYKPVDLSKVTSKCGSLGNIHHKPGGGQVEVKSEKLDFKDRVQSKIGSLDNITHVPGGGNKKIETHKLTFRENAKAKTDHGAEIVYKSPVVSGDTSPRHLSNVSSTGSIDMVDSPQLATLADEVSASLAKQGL
Chain of UniProt Q9HB29 (whole entry, looked up): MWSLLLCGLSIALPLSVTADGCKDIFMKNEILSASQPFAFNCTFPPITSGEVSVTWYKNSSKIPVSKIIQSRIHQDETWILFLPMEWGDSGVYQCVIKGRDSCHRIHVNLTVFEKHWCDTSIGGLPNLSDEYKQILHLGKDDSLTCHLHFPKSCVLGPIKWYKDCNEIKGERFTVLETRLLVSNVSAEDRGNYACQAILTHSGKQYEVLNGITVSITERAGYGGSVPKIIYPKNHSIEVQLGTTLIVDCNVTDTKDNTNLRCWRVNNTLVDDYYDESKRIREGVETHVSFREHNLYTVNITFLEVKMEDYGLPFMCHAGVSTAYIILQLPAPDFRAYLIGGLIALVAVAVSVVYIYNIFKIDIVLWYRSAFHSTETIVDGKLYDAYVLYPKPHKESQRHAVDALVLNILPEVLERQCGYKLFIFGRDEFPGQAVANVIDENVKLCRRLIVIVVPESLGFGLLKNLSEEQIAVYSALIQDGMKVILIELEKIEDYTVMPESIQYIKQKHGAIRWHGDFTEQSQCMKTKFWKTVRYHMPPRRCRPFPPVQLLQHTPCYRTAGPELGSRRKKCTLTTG
Chain of UniProt Q92995 (whole entry, looked up): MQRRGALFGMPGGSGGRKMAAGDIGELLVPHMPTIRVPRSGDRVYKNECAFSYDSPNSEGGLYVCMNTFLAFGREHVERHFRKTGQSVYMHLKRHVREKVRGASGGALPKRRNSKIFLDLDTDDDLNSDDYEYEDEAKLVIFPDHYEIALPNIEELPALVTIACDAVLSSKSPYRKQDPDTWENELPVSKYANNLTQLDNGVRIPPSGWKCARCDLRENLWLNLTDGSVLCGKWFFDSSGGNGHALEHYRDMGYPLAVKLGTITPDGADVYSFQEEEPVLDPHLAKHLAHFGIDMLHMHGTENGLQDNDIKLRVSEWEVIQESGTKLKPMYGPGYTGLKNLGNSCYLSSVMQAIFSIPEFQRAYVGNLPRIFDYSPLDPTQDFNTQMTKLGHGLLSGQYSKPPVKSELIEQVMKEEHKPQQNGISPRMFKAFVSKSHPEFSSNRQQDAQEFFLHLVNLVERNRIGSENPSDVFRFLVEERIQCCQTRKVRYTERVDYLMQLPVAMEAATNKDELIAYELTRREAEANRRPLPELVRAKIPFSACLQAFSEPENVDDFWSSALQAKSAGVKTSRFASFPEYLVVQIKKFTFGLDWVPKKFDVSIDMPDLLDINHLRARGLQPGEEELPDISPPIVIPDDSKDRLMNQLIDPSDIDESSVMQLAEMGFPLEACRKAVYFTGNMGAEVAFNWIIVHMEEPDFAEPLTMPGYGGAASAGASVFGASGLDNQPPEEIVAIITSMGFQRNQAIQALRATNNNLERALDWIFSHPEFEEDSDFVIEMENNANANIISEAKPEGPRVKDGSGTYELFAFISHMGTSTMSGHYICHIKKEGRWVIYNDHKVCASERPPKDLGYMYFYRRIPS

Molecule	target	test	test system	setting	Kd
N#Cc1cnc2sc(C(=O)O)cc2c1N1CCc2[nH]nc(C(=O)N[C@@H](CC(=O)NCCOCCN3CCOCC3)c3cccc(Br)c3)c2C1	Interleukin-1 receptor-like 2, D1-D3 domains (IL1RL2, Homo sapiens, UniProt Q9HB29)	binding, surface plasmon resonance	–	IL-36R D1-D3 ectodomain	0.082 µM
CC(C)=CCC/C(C)=C/C=C/C(C)=C/C=C/C(C)=C/C=C/C=C(C)/C=C/C=C(C)/C=C/C=C(\C)CCC=C(C)C	Beta-lactoglobulin (LGB, Bos taurus, UniProt P02754)	binding, ITC	–	–	47.2 µM
C=CC(=O)N1C[C@H](C)N(c2nc(OC[C@@]34CCCN3C[C@H](F)C4)nc3c(F)c(-c4ccc(F)c5sc(N)c(C#N)c45)c(C(F)(F)F)cc23)C[C@H]1C	GTPase KRas, GppNHp-bound (KRAS, Homo sapiens, UniProt P01116)	microscale thermophoresis	–	–	14 ± 8.1 µM
O=C(O)CC12CC3CC(CC(C3)C1)C2	DNA topoisomerase 2-binding protein 1, BRCT7-8 domains; R1407A (TOPBP1, Homo sapiens, UniProt Q92547, R1407A)	NMR titration	–	not saturated	> 400 µM
NCCCC[C@H](NC(=O)[C@H](C/C=C/C[C@H](NC(=O)[C@@H]1CCCN1)C(=O)N[C@@H](CCCCN)C(=O)NCCCN)NC(=O)[C@@H]1CCCN1)C(=O)NCCCN	(CUG)10 RNA	SPR	–	–	0.421 µM
CCC1(CC)CC(=O)N(C2c3cc(C(=O)NC4c5ccccc5CC4O)ccc3OC2(C)COC)C(=N)N1 (centres unmarked)	Plasmepsin IX (Plasmodium falciparum, UniProt Q8ILG2)	binding, SPR	–	–	> 1e-05 µM
CCc1nc2cc3ccccc3cc2cc1C(=O)N[C@@H](CCCCN)C(=O)N[C@@H](C/C=C/C[C@H](NC(=O)[C@H](CCCCN)NC(=O)c1cc2cc3ccccc3cc2nc1CC)C(=O)N1CCC[C@H]1C(=O)NCCCN)C(=O)N1CCC[C@H]1C(=O)NCCCN	(CUG)10 RNA	SPR	–	–	0.123 µM
O=C(O)CCC(=O)c1cccc(NS(=O)(=O)c2c[nH]c3ncccc23)c1	Ubiquitin carboxyl-terminal hydrolase 13, ZnF-UBD domain (USP13, Homo sapiens, UniProt Q92995)	–	–	–	> 1000 µM
Cn1ncc2cc(-c3cncc(Cl)c3N3CCC4(CCNC4=O)CC3)ccc21	Cyclin-T1 (CCNT1, Homo sapiens, UniProt O60563)	SILAC displacement	LS174T-L5 cell lysate	–	10.8 µM
CCCCCCCO[C@H]1O[C@H](CO)[C@@H](O)[C@H](O)[C@@H]1O	Type 1 fimbrin D-mannose specific adhesin, lectin domain (fimH, Escherichia coli K-12, UniProt P08191)	binding, isothermal titration calorimetry	–	25 °C, individual titrations	0.0291 µM
Cc1c[nH]c2nccc(-c3ccc(C(=O)N[C@@H]4c5c(F)cc(C(F)F)cc5C[C@@H]4O)cn3)c12	IKBKB (Homo sapiens, UniProt O14920)	binding, competition with immobilised ligand	–	–	0.4 µM
CCc1nc2cc3ccccc3cc2cc1C(=O)N1CCC[C@H]1C(=O)N[C@@H](CCC/C=C\CCC[C@H](NC(=O)[C@@H]1CCCN1C(=O)c1cc2cc3ccccc3cc2nc1CC)C(=O)N[C@@H](CCCCN)C(=O)NCCCN)C(=O)N[C@@H](CCCCN)C(=O)NCCCN	(CUG)10 RNA	SPR	–	–	0.0844 µM
CCCc1cc2cc(-n3nc(C(F)F)c4c3CC3(CCC3)CC4=O)cc(N3CCC(O)CC3)c2c(=O)[nH]1	HSP90AB1 (Homo sapiens, UniProt P08238)	fluorescence polarization	–	24 h, 4 °C, with: FITC-geldanamycin tracer	1.86 µM
CCCC[C@@H]1NC(=O)[C@H](Cc2ccc(O)cc2)NC(=O)[C@@H]2CCCN2C(=O)[C@H](CC(=O)O)NC(=O)[C@H](C)NC(=O)[C@H](Cc2ccccc2)NC(=O)[C@@H]2CSCCC(=O)N3CN(CN(C3)C(=O)CCSC[C@@H](C(=O)N[C@@H](C)C(N)=O)NC1=O)C(=O)CCSC[C@H](NC(C)=O)C(=O)N[C@@H](CC(C)(C)C)C(=O)N1CCC[C@H]1C(=O)N[C@@H](CCC(=O)O)C(=O)N[C@H](CCCCNC(=O)CCc1cn(CCOCCOCCOCCN(CCOCCOCCOCCC(=O)N[C@H]3CSCCC(=O)N4CN5CN(C4)C(=O)CCSC[C@H](NC(=O)[C@@H](CC(=O)O)NC(=O)[C@H](Cc4cccc6ccccc46)NC(=O)[C@@H]4CCCN4C3=O)C(=O)N[C@@H](CCSC)C(=O)N[C@@H](CCCCNC(=N)N)C(=O)N[C@@H](CC(=O)O)C(=O)N[C@@H](Cc3c[nH]c4ccccc34)C(=O)N[C@@H](CO)C(=O)N[C@@H]([C@@H](C)O)C(=O)N3CCC[C@H]3C(=O)N3C[C@H](O)C[C@H]3C(=O)N[C@@H](Cc3c[nH]c4ccccc34)C(=O)N[C@H](C(N)=O)CSCCC5=O)CCOCCOCCOCCn3cc(CCC(=O)NCCCC[C@H]4NC(=O)[C@H](CCC(=O)O)NC(=O)[C@@H]5CCCN5C(=O)[C@H](CC(C)(C)C)NC(=O)[C@@H](NC(C)=O)CSCCC(=O)N5CN6CN(C5)C(=O)CCSC[C@H](NC(=O)[C@H](Cc5ccc(O)cc5)NC(=O)[C@@H]5CCCN5C4=O)C(=O)N[C@@H](Cc4ccccc4)C(=O)N[C@@H](C)C(=O)N[C@@H](CC(=O)O)C(=O)N4CCC[C@H]4C(=O)N[C@@H](Cc4ccc(O)cc4)C(=O)N[C@@H](CCCC)C(=O)N[C@H](C(=O)N[C@@H](C)C(N)=O)CSCCC6=O)nn3)nn1)C(=O)N1CCC[C@H]1C(=O)N[C@@H](Cc1ccc(O)cc1)C(=O)N2	Nectin-2 (NECTIN2, Homo sapiens, UniProt Q92692)	SPR	–	–	> 0.2 µM
BODIPY-GTP	GMP reductase (guaB1, Mycolicibacterium smegmatis, UniProt A0QYE8)	fluorescence anisotropy	–	pH 6.6, 25 °C, without GMP	0.45 ± 0.04 µM
CC(C)(C)n1cc(CN(Cc2cn(CCOCCOCCOCCOCCOCCO)nn2)Cc2cn(C(C)(C)C)nn2)nn1	copper(I)	bicinchoninic acid competition	–	–	0.000259 ± 4.94e-05 µM
OC(Cc1cc(-c2ccc(C(O)C(F)(F)F)s2)sc1-c1ccc(-c2sc(-c3ccc(C(O)C(F)(F)F)s3)cc2CC(O)C(F)(F)F)s1)C(F)(F)F (centres unmarked)	Microtubule-associated protein tau, 0N4R isoform, aggregated (MAPT, Homo sapiens, UniProt P10636)	binding, fluorescence	5% sucrose tau fraction	–	1.31 µM
Cc1ccc(C(=NO)c2oc3ccc4c(C)cc(=O)oc4c3c2-c2ccccc2)cc1	Protein S100-A9 (S100A9, Homo sapiens, UniProt P06702)	binding, SPR	–	–	9.6 µM
C[n+]1c(/C=C/c2ccc(N(c3ccccc3)c3ccccc3)cc2)cc(/C=C2\Sc3ccccc3N2CCCN2CCCC2)c2ccccc21	Pu22 DNA	isothermal titration calorimetry	–	pH 7.4, 25 °C, 2% DMSO	4.69 µM
CCc1nc2cc3ccccc3cc2cc1C(=O)N1CCC[C@H]1C(=O)N[C@@H](C/C=C\C[C@H](NC(=O)[C@@H]1CCCN1C(=O)c1cc2cc3ccccc3cc2nc1CC)C(=O)N[C@@H](CCCCN)C(=O)NCCCN)C(=O)N[C@@H](CCCCN)C(=O)NCCCN	(CUG)10 RNA	SPR	–	–	0.038 µM
C=C[C@H]1CN([C@@H](C)c2cn(CCCNC(=O)CCc3ccc4n3[B-](F)(F)[N+]3=C(c5ccc[nH]5)C=CC3=C4)nn2)C(=O)[C@@H]2CCC[C@H]1N2S(=O)(=O)c1cc(Cl)cc(Cl)c1	FKBP1A (Homo sapiens, UniProt P62942)	binding, FP	–	–	0.006 µM
CC(C(=O)O)c1ccc2c(c1)CC(=O)c1ccccc1S2 (centres unmarked)	TOPBP1 (Homo sapiens, UniProt Q92547)	binding, NMR	–	–	120 µM
NS(=O)(=O)c1cc(C(=O)NCCCC(=O)O)c(NC2CCCCC2)cc1Cl	CA14 (Homo sapiens, UniProt Q9ULX7)	–	–	pH 7	0.22 µM
CSCC[C@@H]1NC(=O)[C@H](C(C)C)NC(=O)[C@H](CCCNC(=N)N)NC(=O)[C@@H]2CCCN2C(=O)CNC(=O)[C@@H](NC(=O)CNC(=O)[C@H](CO)NC(=O)CNC(=O)[C@H](CO)NC(=O)CCCC[C@@H]2SC[C@@H]3NC(=O)N[C@@H]32)CSSC[C@@H](C(N)=O)NC(=O)[C@@H]2CCCN2C(=O)CNC(=O)[C@H](CCC(=O)O)NC(=O)[C@H](CC(=O)O)NC(=O)[C@H](CC(=O)O)NC(=O)CNC(=O)[C@H](CC(C)C)NC(=O)[C@H](Cc2c[nH]cn2)NC(=O)[C@H](CC(C)C)NC(=O)CNC(=O)[C@H](Cc2c[nH]cn2)NC1=O	Col1a1/Col1a2 (Rattus norvegicus, UniProt P02454+P02466)	binding, bio-layer interferometry	biotinylated peptide on streptavidin biosensor	with: collagen 0 to 8 µM	0.9 ± 0.4 µM
COC(=O)CCCNC(=O)c1cc(S(N)(=O)=O)c(Cl)cc1NC1CCCCC1	CA3 (Homo sapiens, UniProt P07451)	–	–	pH 7	> 200 µM
O=c1c(-c2ccc(Cl)c(CN3CCOCC3)c2)coc2cc(O)ccc12	HSD3B1 (Homo sapiens, UniProt P14060)	binding, SPR	–	–	1.32 µM

Some of these lines once more:
Molecule	target	test	test system	setting	Kd
CSCC[C@@H]1NC(=O)[C@H](C(C)C)NC(=O)[C@H](CCCNC(=N)N)NC(=O)[C@@H]2CCCN2C(=O)CNC(=O)[C@@H](NC(=O)CNC(=O)[C@H](CO)NC(=O)CNC(=O)[C@H](CO)NC(=O)CCCC[C@@H]2SC[C@@H]3NC(=O)N[C@@H]32)CSSC[C@@H](C(N)=O)NC(=O)[C@@H]2CCCN2C(=O)CNC(=O)[C@H](CCC(=O)O)NC(=O)[C@H](CC(=O)O)NC(=O)[C@H](CC(=O)O)NC(=O)CNC(=O)[C@H](CC(C)C)NC(=O)[C@H](Cc2c[nH]cn2)NC(=O)[C@H](CC(C)C)NC(=O)CNC(=O)[C@H](Cc2c[nH]cn2)NC1=O	Col1a1/Col1a2 (Rattus norvegicus, UniProt P02454+P02466)	binding, bio-layer interferometry	biotinylated peptide on streptavidin biosensor	with: collagen 0 to 8 µM	0.9 ± 0.4 µM
COC(=O)CCCNC(=O)c1cc(S(N)(=O)=O)c(Cl)cc1NC1CCCCC1	CA3 (Homo sapiens, UniProt P07451)	–	–	pH 7	> 200 µM
O=c1c(-c2ccc(Cl)c(CN3CCOCC3)c2)coc2cc(O)ccc12	HSD3B1 (Homo sapiens, UniProt P14060)	binding, SPR	–	–	1.32 µM
